# Assay results collected from several papers.
# Compare with care: the assays were run in different laboratories. “And” joins repeats or separate records; there may be more than shown. ± gives the spread as reported.
Structure (SMILES),target or system,assay,system,setting,how to read,quantity,value
CN(C(=O)n1cnc(-c2cccnc2)c1)C1CCCCC1,,,"Wistar rat, cerebellum","oral, 10 mg/kg of BIA 10-2474, 1 h, single dose",,concentration,64.5 ± 13.4 ng/g
Cc1c2oc3c(C)ccc(C(=O)N[C@@H]4C(=O)N[C@H](C(C)C)C(=O)N5CCC[C@H]5C(=O)N(C)CC(=O)N(C)[C@@H](C(C)C)C(=O)O[C@@H]4C)c3nc-2c(C(=O)N[C@@H]2C(=O)N[C@H](C(C)C)C(=O)N3CCC[C@H]3C(=O)N(C)CC(=O)N(C)[C@@H](C(C)C)C(=O)O[C@@H]2C)c(N)c1=O,,LC-MS,"children with cancer, plasma","dose not given, 26 h",,median plasma concentration,1.9 µg/L
COc1cc(CCC(=O)O)ccc1OS(=O)(=O)O,,,human plasma,median,,plasma concentration,257 nM
COC(=O)C[C@H](NC(=O)[C@H](Cc1ccccc1)NC(=O)C[C@H](CC(C)C)NC(=O)[C@H](CC(=O)OC)NC(=O)[C@H](Cc1cccnc1)NC(=O)CCCCCNC(=O)CCCCCNC(=O)CCCc1cn(CCF)nn1)C(=O)COC(=O)c1ccc(C)s1 [fluorine-18 labelled],,,xenograft tumour,conatumumab-treated,,tumour uptake,< 0.2 %ID/g
COc1cc2nccc(Oc3ccc(NC(=O)c4cc5c(n(-c6ccccc6)c4=O)CCCC5=O)nc3)c2cc1OC,,,relapsed or refractory AML,"oral, all dose levels",,grade ≥3 Thrombocytopenia patients,10%
Cc1ccc(C(=O)N(CCCN)C(c2nc3snc(C)c3c(=O)n2Cc2ccccc2)C(C)C)cc1 (stereo not drawn),,,human patients,"intravenous, 4 mg/day",,patients with CTCAE grade ≥3 events,0%
C[C@@H](NC(=O)N1C(=O)[C@H](Cc2ccnc(N)c2)[C@H]1C(=O)O)C1CCCCC1,,UPLC-MS/MS,"healthy adult Chinese volunteers, plasma","continuous intravenous infusion, 0.3 mg/kg/h, day 6 of 5-day infusion, mean",,t1/2,1.3 h
CCOc1c([C@H](C)n2nc(C)c3c(N)ncnc32)cc(Cl)c(F)c1[C@@H]1CNC(=O)C1,,,"patients with B-cell malignancies, plasma","oral, 30 mg, day 15, monotherapy",,Tmax,1 h
COc1cc(O)c2c(c1)C(=O)c1cc(C)cc(O)c1C2=O,HepaRG co-cultured with HK-2,MTT,,"133.33 µM, 48 h",baseline: untreated control,cell viability,39.9 ± 10.6%
CC[C@H](C)[C@H](NC(=O)[C@H](Cc1ccccc1)NC(=O)[C@H](CCC(=O)O)NC(=O)[C@H](CCCCNC(=O)COCCOCCNC(=O)COCCOCCNC(=O)CC[C@H](NC(=O)CCCCCCCCCCCCCCCCC(=O)O)C(=O)O)NC(=O)[C@H](C)NC(=O)[C@H](C)NC(=O)[C@H](CCC(N)=O)NC(=O)CNC(=O)[C@H](CCC(=O)O)NC(=O)[C@H](CC(C)C)NC(=O)[C@H](Cc1ccc(O)cc1)NC(=O)[C@H](CO)NC(=O)[C@H](CO)NC(=O)[C@@H](NC(=O)[C@H](CC(=O)O)NC(=O)[C@H](CO)NC(=O)[C@@H](NC(=O)[C@H](Cc1ccccc1)NC(=O)[C@@H](NC(=O)CNC(=O)[C@H](CCC(=O)O)NC(=O)C(C)(C)NC(=O)[C@@H](N)Cc1cnc[nH]1)[C@@H](C)O)[C@@H](C)O)C(C)C)C(=O)N[C@@H](C)C(=O)N[C@@H](Cc1c[nH]c2ccccc12)C(=O)N[C@@H](CC(C)C)C(=O)N[C@H](C(=O)N[C@@H](CCCNC(=N)N)C(=O)NCC(=O)N[C@@H](CCCNC(=N)N)C(=O)NCC(=O)O)C(C)C,,,type 2 diabetes patients,"dose not given, hypoglycaemic clamp, nadir PG 5.5 mmol/L",baseline: placebo,systolic blood pressure difference,0.2 mm Hg
Cc1ccc(Sc2ccccc2N2CCNCC2)c(C)c1,,measured: Pollakiuria,healthy adult women,"oral, 5 mg daily, 12 days",,participants with TEAE,16.7%
Cc1cccc(Cn2cc(CO)c3cnccc32)c1,,,"male F344 rat, serum","oral, 100 mg/kg/day, 2 days",,ALT,71 U/L
CC(=O)O[C@H]1C[C@@]2(C)[C@@H](C[C@@H](O)[C@H]3[C@@]4(C)CC[C@@H](O)[C@@H](C)[C@@H]4CC[C@@]32C)/C1=C(\CCC=C(C)C)C(=O)O,,starch gel membrane permeability,Gram-negative envelope surrogate,"200 µM, 20 min, pH 7.4",,amount permeated,0.09 nmol
Cc1ccc(OS(=O)(=O)O)c(O)c1,,,human plasma,mean,,plasma concentration,32700 nM
O=[N+]([O-])c1ccc(-c2ccc(O)cc2)c2cccnc12,,,"male ICR mouse, plasma","intravenous, 1 mg/kg",,elimination rate constant,0.00153 s⁻¹
O=c1oc2cc(O)ccc2c2ccc(O)cc12,,,human plasma,mean,,plasma concentration,79.1 nM
O=C1CC[C@H](N2Cc3cc(N4CCN(CC5CCN(c6ccc([C@@H]7c8ccc(O)cc8CC[C@@H]7c7ccccc7)cc6)CC5)CC4)ccc3C2=O)C(=O)N1,,radiolabelled mass balance,"Sprague-Dawley rat, urine","oral, 20 mg/kg",,dose excreted,< 2%
N#Cc1ccc2c(c1)[C@H]1CCCN(C(=O)c3ccc4[nH]cnc4c3)[C@H]1C2,,,human,"20 mg, end of trial",,median ACTH level,5.8 pmol/L
CO[C@@H]1[C@@H](OC(N)=O)[C@@H](O)[C@H](Oc2ccc3c(O)c(NC(=O)c4ccc(O)c(CC=C(C)C)c4)c(=O)oc3c2C)OC1(C)C,,starch gel membrane permeability,Gram-negative envelope surrogate,"200 µM, 90 min, pH 7.4",,amount permeated,2.7 nmol
CC(C)[C@H](N)C(=O)NCCCS(=O)(=O)O,,,"human both sexes, plasma","oral, 340 mg once daily days 8-14, day 14, fasted capsule",,AUC(0-24),13800 ng·h/mL
COc1ncc(-c2nc3c(n2C(C)C)[C@H](c2ccc(Cl)cc2)N(c2cc(Cl)cn(C)c2=O)C3=O)c(OC)n1,,,"human patients, plasma","oral, 12.5 mg, high-dose arm, cycle 1 day 1",,AUC(0-t) geometric mean,1480 ng·h/mL
Cc1nc2ccc(OCc3ccc(C(F)(F)F)cc3)cc2[nH]1,,,"male Balb/c mice, lungs","oral, 10 mg/kg, 4 h",baseline: tissue over plasma,tissue/plasma ratio,3.3 ± 1.5
CCn1ncc2c1-c1cnc(N)c(c1)O[C@H](C)c1cc(F)ccc1-c1nn(C)nc1C2,,,"female athymic nude mice, sample B PDX","oral, 0.2 mg/kg once daily for 1 days, 12 h",,unbound plasma trough concentration,2.5 ± 0.3 nM
CCO[C@H]1CCN(Cc2c(OC)cc(C)c3[nH]ccc23)[C@H](c2ccc(C(=O)O)cc2)C1,,,"PNH patients, active haemolysis","oral, 200 mg, 8 weeks, treatment",,incidence of dry throat,0%
C[C@@H](Oc1ccc(S(C)(=O)=O)cc1C(=O)N1C[C@@H]2C[C@]2(c2cc(C(F)(F)F)on2)C1)C(F)(F)F,,,human,"oral plus intravenous microtracer, dose not given",,subjects with nervous system disorders,16.7%
Cc1ccc([C@@H]2O[C@H](CO)[C@@H](O)[C@H](O)[C@H]2O)cc1Cc1ccc(-c2ccc(F)cc2)s1,,,Japanese type 2 diabetes patients,"400 mg, day 3, 24 h urine collection",baseline: baseline,urinary calcium excretion change,-19.1 mg
COc1cc(/C=C/C(=O)O)ccc1O,,,human plasma,median,,plasma concentration,715 nM
CCCCOC(=O)N1CCN(C(=O)[C@H](CP(=O)(O)O)NC(=O)c2cc(N3CC[C@H](OC)C3)nc(-c3ccccc3)n2)CC1,,,human,"subcutaneous, 16 mg, 24 h post-dose",baseline: baseline,change in QT interval,-3.5 ± 15.8 ms
O=C(O)CCC(=O)O.[2H]C([2H])([2H])Oc1cc(C)c2[nH]ccc2c1CN1CC[C@@H](C2CC2)C[C@H]1c1ccc(C(=O)O)cc1,,multiple ascending dose,healthy Chinese subjects,200 mg once daily,,subjects with dental ulcer TEAE,12.5%
CCc1cc(C(=O)NC)c2nccc(N3CCc4c(cc(Cn5ccnc5)cc4-c4cn(C)nc4C(F)(F)F)C3=O)c2c1,,measured: UREA,Sprague Dawley rat,"oral, 100 mg/kg once daily, 7 days",baseline: vehicle,change in clinical chemistry or haematology parameter,0.6%
CCN1CCN(c2cc(N3CCN(CC)CC3)nc(NCCNc3ccnc4cc(Cl)ccc34)n2)CC1,COS-7,,,"10 µM, 24 h, 0.1% DMSO, unit not given",baseline: vehicle control,necrotic cells,0.42 ± 0.21
CC(C)(C(=O)N1CCOc2c(C#N)cncc2C1)C(F)F,,measured: abnormal urine odour,"human, both sexes","oral, 10 mg once daily, 14 days, multiple ascending dose",,subjects with TEAE,12.5%
CN(C)[C@@H]1C(O)=C(C(N)=O)C(=O)[C@@]2(O)C(O)=C3C(=O)c4c(O)cccc4[C@@](C)(O)[C@H]3C[C@@H]12,,starch gel membrane permeability,Gram-negative envelope surrogate,"200 µM, 90 min, pH 7.4",,amount permeated,3.9 nmol
O=C(Nc1cnc2ccccc2c1)c1cc2[nH]ccc2cc1Cl,COS-7,,,"10 µM, 24 h, 0.1% DMSO, unit not given",baseline: vehicle control,necrotic cells,1.67 ± 0.3
O=C(O)c1ccc(O)c(O)c1O,,,human plasma,"median, both sexes",,plasma concentration,114 nM
CNC(=O)c1cccc(-c2ccc([C@@H](O)[C@H]3O[C@H](CO)[C@@H](O)[C@H](O)[C@@H]3O)c(C)c2)c1,,,"male Sprague-Dawley rat, plasma","oral, 10 mg/kg, group mean",,AUC(0-all),93.7 ng·h/mL
O=C(Nc1nc2cccc(-c3ccc(CN4CCS(=O)(=O)CC4)cc3)n2n1)C1CC1,,measured: lipase increased,human rheumatoid arthritis patients,"oral, 300 mg once daily, 4 weeks, regardless of relatedness",,treatment-emergent adverse events,0%
N=C(N)NCCNC(=O)C1(Nc2ccccc2)CCN(Cc2ccccc2)CC1,,,"Sprague-Dawley rats (both sexes), plasma","oral, 50 mg/kg",,clearance,1 ± 0.1 L/h
COc1c(O)c(C)cc2c1C(=O)c1c(ccc(O)c1O)C2=O,HepaRG co-cultured with HK-2,MTT,,"266.67 µM, 48 h",baseline: untreated control,cell viability,33.5 ± 3.05%
O=C(O)Cc1ccc(O)c(O)c1,,,human plasma,median,,plasma concentration,1370 nM
CCc1c(-c2ccccc2)c(-c2ccccc2)nn1-c1ccccc1-c1cccc(OCC(=O)O)c1,,,Sprague-Dawley rat,"intravenous, dose not given",,AUC back-extrapolated observed,32.5% and 31.5% and 28.2%
CCN1/C(=C/C(C)=O)Sc2ccc(F)cc21,,,cynomolgus monkey,"oral, 10 mg/kg, 1 h post-dose",baseline: pre-dose,systolic blood pressure change,102 ± 7.9%
O=C(O)CCc1ccc(O)cc1O,,,human plasma,median,,plasma concentration,1280 nM
O=C(c1cccnc1-c1ccncc1)N1CCC(O)(Cc2ccccc2)CC1,,,"healthy Japanese adults, plasma","oral, 300 mg twice daily, day 21",,AUClast,2020 ng·h/mL
CNC(=O)c1ccc(-c2cnc3ncc(Cc4ccc5ncccc5c4)n3n2)cc1F,,"measured: Dizziness, all grades",gastric cancer patients,"oral, 600 mg twice daily, expansion cohort, any causality",,patients with adverse event,0%

# Some of these lines once more:
Structure (SMILES),target or system,assay,system,setting,how to read,quantity,value
CCc1cc(C(=O)NC)c2nccc(N3CCc4c(cc(Cn5ccnc5)cc4-c4cn(C)nc4C(F)(F)F)C3=O)c2c1,,measured: UREA,Sprague Dawley rat,"oral, 100 mg/kg once daily, 7 days",baseline: vehicle,change in clinical chemistry or haematology parameter,0.6%
CCN1CCN(c2cc(N3CCN(CC)CC3)nc(NCCNc3ccnc4cc(Cl)ccc34)n2)CC1,COS-7,,,"10 µM, 24 h, 0.1% DMSO, unit not given",baseline: vehicle control,necrotic cells,0.42 ± 0.21
CC(C)(C(=O)N1CCOc2c(C#N)cncc2C1)C(F)F,,measured: abnormal urine odour,"human, both sexes","oral, 10 mg once daily, 14 days, multiple ascending dose",,subjects with TEAE,12.5%
CN(C)[C@@H]1C(O)=C(C(N)=O)C(=O)[C@@]2(O)C(O)=C3C(=O)c4c(O)cccc4[C@@](C)(O)[C@H]3C[C@@H]12,,starch gel membrane permeability,Gram-negative envelope surrogate,"200 µM, 90 min, pH 7.4",,amount permeated,3.9 nmol
O=C(Nc1cnc2ccccc2c1)c1cc2[nH]ccc2cc1Cl,COS-7,,,"10 µM, 24 h, 0.1% DMSO, unit not given",baseline: vehicle control,necrotic cells,1.67 ± 0.3
